Assay results gathered from unrelated publications.
Compare with care: the assays were run in different laboratories.
Technique: steady-state kinetics
B1: enzyme G29Y (Thermobifida fusca, UniProt Q47RA9); chain MIMIMASKSSPHDLPDVSGLSIAVLGGTYDQGRGLARRFAMAGHEVILGSRSAERAQAVAAELGEGLPVRGMDNAGAAEAGDVVIVAVPWDGHRALLESLKDVLAGKIVVDCVNPLGFDKRGAYALPVEEGSAAEQAAAILPDSRVVAAFHHVSAVLLLDPEVEKVDLDVLVLGDDREATDVVRALAARIPGVRGVYGGRLRNAHQVEAFTANLISINRRYKAHAGIRITDI
B2: protein (Shewanella denitrificans, UniProt Q12KT8); chain MIHKLADVQSQNIGDNTKVWQFCVILAGAVIGRNCNICANSLIENDVVIGDNVTIKSGVQIWDGIHIQDDVFIGPNVTFTNDKQPRSKIYPDEYLKTIVKKGASIGANSTILPGILIGENAMVGAGAVITKNVPDNAIVIGNPGRITGYVEANTGVIMPSNNFELKLQMSKVKGVSLHKFHLVNDLRGNLSVGEFEKDIPFTPKRYFTVFGVPNKEVRGEHAHKECKQFLICVSGNCSVLVDDGENREEYVLDSIDKGIYLPPMTWGVQYKYSKDAVLLVFASHYYDSDDYIRDYSTFKQMRQN
B3: ADA (Homo sapiens, UniProt P00813); chain MAQTPAFDKPKVELHVHLDGSIKPETILYYGRRRGIALPANTAEGLLNVIGMDKPLTLPDFLAKFDYYMPAIAGCREAIKRIAYEFVEMKAKEGVVYVEVRYSPHLLANSKVEPIPWNQAEGDLTPDEVVALVGQGLQEGERDFGVKARSILCCMRHQPNWSPKVVELCKKYQQQTVVAIDLAGDETIPGSSLLPGHVQAYQEAVKSGIHRTVHAGEVGSAEVVKEAVDILKTERLGHGYHTLEDQALYNRLRQENMHFEICPWSSYLTGAWKPDTEHAVIRLKNDQANYSLNTDDPLIFKSTLDTDYQMTKRDMGFTEEEFKRLNINAAKSSFLPEDEKRELLDLLYKAYGMPPSASAGQNL
B4: protein (Allochromatium vinosum, UniProt P45370); chain MFPIDIRPDKLTQEMLDYSRKLGQGMENLLNAEAIDTGVSPKQAVYSEDKLVLYRYDRPEGAPEAQPVPLLIVYALVNRPYMTDIQEDRSTIKGLLATGQDVYLIDWGYPDQADRALTLDDYINGYIDRCVDYLREAHGVDKVNLLGICQGGAFSLMYSALHPDKVRNLVTMVTPVDFKTPDNLLSAWVQNVDIDLAVDTMGNIPGELLNWTFLSLKPFSLTGQKYVNMVDLLDDPDKVKNFLRMEKWIFDSPDQAGETFRQFIKDFYQNNGFLNGGVVLGGQEVDLKDITCPVLNIFALQDHLVPPDASRALKGLTSSPDYTELAFPGGHIGIYVSGKAQKEVTPAIGKWLNER
B5: protein F222G (Planktothrix agardhii, UniProt F5B6Z0); chain MIVNVIQKDRLKEQKLQFIRNHQQAFDVEPIYPLPLFEDFVTSIEGDCSLEASCKIESDKLIASRFLLFFEDKTQEWQKYLHQSLTFFGLVENRVGVKINYSLLQQFLGSSFDFSKVTVLSAGIDLRNNLAESSLKMHIRIKDYPEKLDKAFALSDGAADGNYLKDFVNLIGFDFYFNGKSEIEIYAEVQEDDFFKPEINNLVWQHFPKTALQPLKASSLFGTGLSKANNNPVLYYHLKNRQDLTNYFKLNDTAQRVHSFYQHQDILPYMWVGTAQKELEKTRIENIRLYYYKSFKMESN
B6: ribK (UniProt H2C8H2); chain MSEECLIAKIVYLSNKGSEVTQQTLAEELKMSQQTISRKLRELEERSLIKRSLSKEGEVIRVTENGEKLLEECLSVLKTAIMTSHLLIIRGRVISGLGEGRLFLTMPYYVESFKKFLGFEPYPGTLNLAIYDRESLENRLALDTSKSINIPEYREQNRVLGGVRAFPASINGLRPAAVVFPLRSVHPKSIIEVISPYHLRKELNLNDGDEVTVEAYA
B7: SULT2A1 (Homo sapiens, UniProt Q06520); chain MSDDFLWFEGIAFPTMGFRSETLRKVRDEFVIRDEDVIILTYPKSGTNWLAEILCLMHSKGDAKWIQSVPIWERSPWVESEIGYTALSETESPRLFSSHLPIQLFPKSFFSSKAKVIYLMRNPRDVLVSGYFFWKNMKFIKKPKSWEEYFEWFCQGTVLYGSWFDHIHGWMPMREEKNFLLLSYEELKQDTGRTIEKICQFLGKTLEPEELNLILKNSSFQSMKENKMSNYSLLSVDYVVDKAQLLRKGVSGDWKNHFTVAQAEDFDKLFQEKMADLPRELFPWE
B8: PRP43 R159A (Saccharomyces cerevisiae, UniProt P53131); chain MGSKRRFSSEHPDPVETSIPEQAAEIAEELSKQHPLPSEEPLVHHDAGEFKGLQRHHTSAEEAQKLEDGKINPFTGREFTPKYVDILKIRRELPVHAQRDEFLKLYQNNQIMVFVGETGSGKTTQIPQFVLFDEMPHLENTQVACTQPRRVAAMSVAQAVAEEMDVKLGEEVGYSIRFENKTSNKTILKYMTDGMLLREAMEDHDLSRYSCIILDEAHERTLATDILMGLLKQVVKRRPDLKIIIMSATLDAEKFQRYFNDAPLLAVPGRTYPVELYYTPEFQRDYLDSAIRTVLQIHATEEAGDILLFLTGEDEIEDAVRKISLEGDQLVREEGCGPLSVYPLYGSLPPHQQQRIFEPAPESHNGRPGRKVVISTNIAETSLTIDGIVYVVDPGFSKQKVYNPRIRVESLLVSPISKASAQQRAGRAGRTRPGKCFRLYTEEAFQKELIEQSYPEILRSNLSSTVLELKKLGIDDLVHFDFMDPPAPETMMRALEELNYLACLDDEGNLTPLGRLASQFPLDPMLAVMLIGSFEFQCSQEILTIVAMLSVPNVFIRPTKDKKRADDAKNIFAHPDGDHITLLNVYHAFKSDEAYEYGIHKWCRDHYLNYRSLSAADNIRSQLERLMNRYNLELNTTDYESPKYFDNIRKALASGFFMQVAKKRSGAKGYITVKDNQDVLIHPSTVLGHDAEWVIYNEFVLTSKNYIRTVTSVRPEWLIEIAPAYYDLSNFQKGDVKLSLERIKEKVDRLNELKQGKNKKKSKHSKK
B9: protein Y93C (Thermus thermophilus, UniProt Q5SKR5); chain MSAPKPFVIGIAGGTASGKTTLAQALARTLGERVALLPMDHYYKDLGHLPLEERLRVNYDHPDAFDLALYLEHAQALLRGLPVEMPVYDFRACTRSPRRTPVRPAPVVILEGILVLYPKELRDLMDLKVFVDADADERFIRRLKRDVLERGRSLEGVVAQYLEQVKPMHLHFVEPTKRYADVIVPRGGQNPVALEMLAAKALARLARMGAA
Sequence of UniProt Q5JTZ9 (whole entry, looked up): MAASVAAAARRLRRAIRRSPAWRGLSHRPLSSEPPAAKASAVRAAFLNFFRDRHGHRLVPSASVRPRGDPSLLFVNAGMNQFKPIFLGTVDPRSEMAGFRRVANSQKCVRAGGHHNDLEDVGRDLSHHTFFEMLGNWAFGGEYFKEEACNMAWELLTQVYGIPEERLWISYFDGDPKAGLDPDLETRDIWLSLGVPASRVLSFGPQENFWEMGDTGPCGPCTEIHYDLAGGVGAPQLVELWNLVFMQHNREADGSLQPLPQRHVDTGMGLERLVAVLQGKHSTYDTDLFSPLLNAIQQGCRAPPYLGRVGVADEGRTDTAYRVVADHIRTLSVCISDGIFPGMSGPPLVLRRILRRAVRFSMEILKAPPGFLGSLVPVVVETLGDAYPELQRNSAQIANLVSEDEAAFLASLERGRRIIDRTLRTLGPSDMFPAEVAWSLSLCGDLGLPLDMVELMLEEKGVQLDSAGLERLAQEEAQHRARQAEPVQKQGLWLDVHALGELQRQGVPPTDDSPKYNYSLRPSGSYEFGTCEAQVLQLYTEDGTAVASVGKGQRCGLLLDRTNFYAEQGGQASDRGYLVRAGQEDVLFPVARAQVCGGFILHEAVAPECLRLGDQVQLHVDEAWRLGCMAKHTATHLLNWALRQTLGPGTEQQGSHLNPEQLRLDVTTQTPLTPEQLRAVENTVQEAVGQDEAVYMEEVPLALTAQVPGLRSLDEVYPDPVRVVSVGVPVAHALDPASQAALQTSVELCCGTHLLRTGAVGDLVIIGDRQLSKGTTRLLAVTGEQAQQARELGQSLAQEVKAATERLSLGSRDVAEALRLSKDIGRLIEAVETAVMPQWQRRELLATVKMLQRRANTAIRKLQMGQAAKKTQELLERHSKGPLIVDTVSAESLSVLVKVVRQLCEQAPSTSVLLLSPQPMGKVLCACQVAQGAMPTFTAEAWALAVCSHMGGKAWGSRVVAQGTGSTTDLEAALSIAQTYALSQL
Sequence of UniProt P31513 (whole entry, looked up): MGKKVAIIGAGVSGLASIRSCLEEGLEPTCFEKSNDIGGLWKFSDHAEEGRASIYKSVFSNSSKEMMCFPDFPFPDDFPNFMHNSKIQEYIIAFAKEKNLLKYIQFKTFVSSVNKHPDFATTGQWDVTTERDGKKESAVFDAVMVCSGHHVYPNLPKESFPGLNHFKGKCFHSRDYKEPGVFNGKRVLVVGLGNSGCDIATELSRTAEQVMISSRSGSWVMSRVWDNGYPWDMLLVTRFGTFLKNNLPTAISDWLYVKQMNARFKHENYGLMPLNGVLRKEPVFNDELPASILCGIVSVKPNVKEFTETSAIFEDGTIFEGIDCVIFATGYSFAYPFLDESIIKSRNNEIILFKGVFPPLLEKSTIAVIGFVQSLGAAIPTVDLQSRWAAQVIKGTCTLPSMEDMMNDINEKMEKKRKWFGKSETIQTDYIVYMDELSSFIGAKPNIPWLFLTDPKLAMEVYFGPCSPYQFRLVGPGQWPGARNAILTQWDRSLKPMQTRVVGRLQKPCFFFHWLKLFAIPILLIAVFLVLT

Molecule	substrate	test system	conditions	Km [µM]
B1 (enzyme G29Y)	NC(=O)c1ccc[n+](CCO)c1	–	pH 8, 25 °C	23000
B2 (protein)	Cc1cn([C@H]2C[C@H](O)[C@@H](COP(=O)(O)OP(=O)(O)O[C@H]3O[C@H](C)C(=O)[C@H](O)[C@H]3O)O2)c(=O)[nH]c1=O	–	pH 7.5, added: NADPH 0.2 mM	45
FMO3 (Homo sapiens, UniProt P31513)	CN1CCC[C@H]1c1cccnc1	HEK293 microsomes	37 °C, not purified, added: NADPH regenerating system	700
B3 (ADA)	Nc1ncnc2c1ncn2[C@@H]1O[C@H](CO)[C@@H](O)[C@H]1O	HEK293, cell homogenate	pH 5.8, 37 °C, not purified	126
B4 (protein)	C[C@@H](O)CC(=O)SCCNC(=O)CCNC(=O)[C@H](O)C(C)(C)COP(=O)(O)OP(=O)(O)OC[C@H]1O[C@@H](n2cnc3c(N)ncnc32)[C@H](O)[C@@H]1OP(=O)(O)O	–	pH 7.8, 30 °C	110
B5 (protein F222G)	CC(C)=CCOP(=O)(O)OP(=O)(O)O	–	added: tri-Tyr peptide acceptor	1250
B6 (ribK)	Cc1cc2nc3c(=O)[nH]c(=O)nc-3n(C[C@H](O)[C@H](O)[C@H](O)CO)c2cc1C	–	pH 8, 60 °C, apparent	90
protein (UniProt M4ZR24)	O=c1ccn([C@H]2C[C@H](O)[C@@H](CO)O2)c(=O)[nH]1	–	phosphorolysis, single substrate, added: phosphate	1800
B7 (SULT2A1)	C[C@H](CCCC(CO)CO)[C@H]1CC[C@H]2[C@@H]3[C@H](O)C[C@H]4C[C@H](O)CC[C@]4(C)[C@H]3C[C@H](O)[C@]12C	–	pH 7, 37 °C, substrate inhibition, added: PAPS 14 µM	181
AARS2 (Homo sapiens, UniProt Q5JTZ9)	C[C@H](N)C(=O)O	–	pH 8, 37 °C, KCl 20 mM, added: ATP 4 mM	5680
B8 (PRP43 R159A)	Nc1ccn([C@@H]2O[C@H](COP(=O)(O)OP(=O)(O)OP(=O)(O)O)[C@@H](O)[C@H]2O)c(=O)n1	–	pH 8, KCl 100 mM, without Pfa1, added: polyA 0.2 mM, magnesium acetate 2.5 mM	935
B9 (protein Y93C)	Nc1ccn([C@@H]2O[C@H](CO)[C@@H](O)[C@H]2O)c(=O)n1	–	pH 7.2, 25 °C, KCl 100 mM, added: ATP 100–200 µM	215

Excerpt of the above:
Molecule	substrate	test system	conditions	Km [µM]
B4 (protein)	C[C@@H](O)CC(=O)SCCNC(=O)CCNC(=O)[C@H](O)C(C)(C)COP(=O)(O)OP(=O)(O)OC[C@H]1O[C@@H](n2cnc3c(N)ncnc32)[C@H](O)[C@@H]1OP(=O)(O)O	–	pH 7.8, 30 °C	110
